Measurements from different studies.
Numbered parts are unrelated; each lists some results of a single study.
Chain of UniProt O75676 (whole entry, looked up): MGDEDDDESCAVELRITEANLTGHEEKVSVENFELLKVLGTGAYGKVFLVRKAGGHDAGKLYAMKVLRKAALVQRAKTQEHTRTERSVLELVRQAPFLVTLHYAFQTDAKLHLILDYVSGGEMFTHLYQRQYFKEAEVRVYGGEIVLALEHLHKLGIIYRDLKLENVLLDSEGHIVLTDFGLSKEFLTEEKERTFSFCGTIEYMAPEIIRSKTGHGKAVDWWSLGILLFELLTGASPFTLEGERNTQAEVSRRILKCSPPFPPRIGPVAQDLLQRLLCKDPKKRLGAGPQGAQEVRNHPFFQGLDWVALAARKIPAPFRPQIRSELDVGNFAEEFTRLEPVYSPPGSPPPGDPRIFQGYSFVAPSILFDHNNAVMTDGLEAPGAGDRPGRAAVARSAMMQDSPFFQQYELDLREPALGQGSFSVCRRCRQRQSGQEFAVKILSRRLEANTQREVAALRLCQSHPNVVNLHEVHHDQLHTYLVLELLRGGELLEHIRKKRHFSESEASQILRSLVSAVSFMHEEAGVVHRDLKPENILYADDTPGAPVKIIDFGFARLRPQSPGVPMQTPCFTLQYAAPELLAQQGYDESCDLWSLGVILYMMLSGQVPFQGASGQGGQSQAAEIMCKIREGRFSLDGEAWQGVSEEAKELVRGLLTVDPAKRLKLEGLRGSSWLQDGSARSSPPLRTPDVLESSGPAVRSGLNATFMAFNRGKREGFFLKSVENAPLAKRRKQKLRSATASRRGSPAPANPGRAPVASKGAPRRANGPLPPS
Chain of UniProt P51812 (whole entry, looked up): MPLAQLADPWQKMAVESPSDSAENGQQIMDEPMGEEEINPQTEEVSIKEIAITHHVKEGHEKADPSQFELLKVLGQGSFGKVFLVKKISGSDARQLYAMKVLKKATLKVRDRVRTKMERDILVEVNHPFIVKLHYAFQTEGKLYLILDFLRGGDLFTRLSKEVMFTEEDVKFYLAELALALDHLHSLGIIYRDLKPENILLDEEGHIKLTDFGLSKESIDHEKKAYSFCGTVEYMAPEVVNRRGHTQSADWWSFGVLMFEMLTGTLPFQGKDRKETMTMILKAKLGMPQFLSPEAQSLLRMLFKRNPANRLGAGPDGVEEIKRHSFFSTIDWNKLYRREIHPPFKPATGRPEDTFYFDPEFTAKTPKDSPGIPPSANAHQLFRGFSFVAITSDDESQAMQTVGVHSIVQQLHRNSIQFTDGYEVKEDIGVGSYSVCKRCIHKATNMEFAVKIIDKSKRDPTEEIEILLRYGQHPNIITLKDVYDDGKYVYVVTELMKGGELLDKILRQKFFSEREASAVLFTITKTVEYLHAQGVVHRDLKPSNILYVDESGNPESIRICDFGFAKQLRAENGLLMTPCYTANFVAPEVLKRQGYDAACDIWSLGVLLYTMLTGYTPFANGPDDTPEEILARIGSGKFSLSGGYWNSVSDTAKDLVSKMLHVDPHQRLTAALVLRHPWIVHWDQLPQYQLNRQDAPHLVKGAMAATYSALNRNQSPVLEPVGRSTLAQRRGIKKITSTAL
Chain of UniProt Q9BYP7 (whole entry, looked up): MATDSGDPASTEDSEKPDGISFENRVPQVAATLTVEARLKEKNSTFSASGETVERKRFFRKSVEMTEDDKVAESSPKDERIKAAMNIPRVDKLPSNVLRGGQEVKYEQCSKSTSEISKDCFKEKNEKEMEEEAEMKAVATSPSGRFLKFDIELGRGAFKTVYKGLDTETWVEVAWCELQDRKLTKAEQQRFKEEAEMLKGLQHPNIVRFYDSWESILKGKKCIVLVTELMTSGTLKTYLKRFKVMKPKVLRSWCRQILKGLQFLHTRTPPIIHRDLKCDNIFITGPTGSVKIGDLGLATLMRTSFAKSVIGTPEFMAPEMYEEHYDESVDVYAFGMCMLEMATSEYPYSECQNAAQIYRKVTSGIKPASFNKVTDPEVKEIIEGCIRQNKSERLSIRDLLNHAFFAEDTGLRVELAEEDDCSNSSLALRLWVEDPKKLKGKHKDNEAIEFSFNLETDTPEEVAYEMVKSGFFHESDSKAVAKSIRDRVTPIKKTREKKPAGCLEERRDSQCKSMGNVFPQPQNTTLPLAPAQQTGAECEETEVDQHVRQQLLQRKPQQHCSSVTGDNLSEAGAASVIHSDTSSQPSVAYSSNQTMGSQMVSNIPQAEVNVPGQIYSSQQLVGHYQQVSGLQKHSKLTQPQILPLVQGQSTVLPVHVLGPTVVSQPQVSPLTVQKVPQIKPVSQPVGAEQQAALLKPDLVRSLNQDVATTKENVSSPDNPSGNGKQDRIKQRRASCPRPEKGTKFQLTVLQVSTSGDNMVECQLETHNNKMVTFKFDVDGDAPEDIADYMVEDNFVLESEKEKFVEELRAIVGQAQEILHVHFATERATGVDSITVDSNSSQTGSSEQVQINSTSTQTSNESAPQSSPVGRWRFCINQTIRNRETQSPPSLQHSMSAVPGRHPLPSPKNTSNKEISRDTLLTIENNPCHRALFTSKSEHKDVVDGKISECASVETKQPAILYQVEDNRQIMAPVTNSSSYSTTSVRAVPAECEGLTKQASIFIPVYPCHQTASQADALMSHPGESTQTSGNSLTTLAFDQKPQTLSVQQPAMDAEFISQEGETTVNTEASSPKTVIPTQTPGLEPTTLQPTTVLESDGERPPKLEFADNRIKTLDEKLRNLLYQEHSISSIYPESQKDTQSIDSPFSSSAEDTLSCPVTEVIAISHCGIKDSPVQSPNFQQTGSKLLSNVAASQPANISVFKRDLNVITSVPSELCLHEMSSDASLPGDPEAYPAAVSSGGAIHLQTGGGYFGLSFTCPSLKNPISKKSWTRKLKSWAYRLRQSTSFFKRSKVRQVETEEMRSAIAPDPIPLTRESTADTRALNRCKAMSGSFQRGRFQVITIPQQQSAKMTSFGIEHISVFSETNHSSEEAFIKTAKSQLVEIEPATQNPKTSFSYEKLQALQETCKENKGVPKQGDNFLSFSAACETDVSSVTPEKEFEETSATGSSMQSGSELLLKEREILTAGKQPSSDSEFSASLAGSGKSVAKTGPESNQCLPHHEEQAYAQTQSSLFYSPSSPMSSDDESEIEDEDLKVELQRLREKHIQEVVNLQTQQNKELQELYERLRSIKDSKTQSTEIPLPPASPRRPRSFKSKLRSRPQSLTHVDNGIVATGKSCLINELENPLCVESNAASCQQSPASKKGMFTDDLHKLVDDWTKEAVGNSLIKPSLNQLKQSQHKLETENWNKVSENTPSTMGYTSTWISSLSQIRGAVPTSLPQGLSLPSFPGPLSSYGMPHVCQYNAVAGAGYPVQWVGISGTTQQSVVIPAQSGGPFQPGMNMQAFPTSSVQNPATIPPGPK

Study 1 — tested at: 50 µM
Target: Bromodomain-containing protein 4, BD1 (BRD4, Homo sapiens, UniProt O60885)
Compound | inhibition
NC(=O)c1ccc(-c2nc(-c3ccc4c(c3)OCO4)c(-c3ccccn3)[nH]2)cc1 | 44.6%
Cc1nc(NC(=O)N2CCC[C@H]2C(N)=O)sc1-c1ccnc(C(C)(C)C(F)(F)F)c1 | 2.3%
Cn1c(=O)c(F)c(Nc2ccc(I)cc2F)c2c(=O)n(C[C@@H](O)CO)cnc21 | 12.7%
CO[C@@H](C(=O)N1Cc2n[nH]c(NC(=O)c3ccc(N4CCN(C)CC4)cc3)c2C1)c1ccccc1 | -0.85%
COc1cc2nccc(Oc3ccc(NC(=O)NC4CC4)c(Cl)c3)c2cc1C(N)=O | 1.1%
COc1cc(OC)c(/C=C/S(=O)(=O)Cc2ccc(OC)c(NCC(=O)O)c2)c(OC)c1 | 9.05%
Nc1nc(OCc2ccccc2)c2nc[nH]c2n1 | 31.9%
CCN(CC)CCCCNc1ncc2cc(-c3cc(OC)cc(OC)c3)c(NC(=O)NC(C)(C)C)nc2n1 | 4.95%
Cc1ccc(-n2nc(C(C)(C)C)cc2NC(=O)Nc2ccc(OCCN3CCOCC3)c3ccccc23)cc1 | 46.9%
O=c1sn(-c2cccc3ccccc23)c(=O)n1Cc1ccccc1 | 82.3%
CCN1CCN(c2ccc(Nc3cc(N(C)C(=O)Nc4c(Cl)c(OC)cc(OC)c4Cl)ncn3)cc2)CC1 | 10.1%
CC(=O)Nc1cccc(-n2c(=O)n(C3CC3)c(=O)c3c(Nc4ccc(I)cc4F)n(C)c(=O)c(C)c32)c1 | 21%
Cn1cnc2c(F)c(Nc3ccc(Br)cc3Cl)c(C(=O)NOCCO)cc21 | 3.1%
CC(C)(C)c1nc(-c2cccc(NS(=O)(=O)c3c(F)cccc3F)c2F)c(-c2ccnc(N)n2)s1 | 15.3%
N#CCNC(=O)c1ccc(-c2ccnc(Nc3ccc(N4CCOCC4)cc3)n2)cc1 | 15.7%
Cc1c(NC(=O)OC[C@@H]2COCCN2)cn2ncnc(Nc3ccc4c(cnn4Cc4cccc(F)c4)c3)c12 | 77.2%
COc1cc2nccc(Oc3ccc(NC(=O)C4(C(=O)Nc5ccc(F)cc5)CC4)cc3)c2cc1OC | 27.8%
O=C(NC[C@H](O)CO)c1ccncc1Nc1ccc(I)cc1F | 0%

Study 2 — host: mouse; matrix: microsomes or S9; tested at: 2 µM; time: 0.5 h
Structure (SMILES) | remaining compound [%]
c1ccc2c(c1)cnn2CCCNc1ncnc2c1CCNCC2 | 90
COc1ccc(-c2cc(C(=O)N3CCc4ccccc4C3)n[nH]2)cc1S(=O)(=O)N(C)C | 2.87
N#Cc1ccc(OC2CCC(Nc3ncnc(N)c3Cl)CC2)nc1 (stereo not shown) | 88.2
CC(C)=CCn1c(COc2ccc(Br)cc2Cl)noc1=O | > 99.9
CCc1nc2cc(-c3ccc(OC)nc3)cnc2[nH]1 | 48.1
COc1ncc(NC(=O)CCCNC(=O)OC(C)(C)C)cc1C#N | 16.7
O=C(Nc1nc2ncc(Br)nc2s1)c1ccc(Cl)cc1 | 52.4
CC(C)(C)c1cc(SCC(=O)O)cc(C(C)(C)C)c1O | > 99
CCn1nc(-c2cc(C)ccc2Cl)nc1N(C)C | 0.14
Cc1cc(C)n(-c2ccc(C(=O)NCc3ccc(C)o3)cn2)n1 | 33.3
CC(=O)N1CCOc2cc(S(=O)(=O)N3CSC[C@@H]3C(=O)NCc3csc(C)n3)c(C)cc21 | 2.92
CC1CCNC2CN(c3nc4c(cc3F)c(=O)c(C(=O)O)cn4-c3ncc(F)cc3F)CC12 (stereo not shown) | > 100
CCOC(=O)Cn1ccc2cc(N3C(=O)N4CCCC4(C)C3=O)ccc21 (stereo not shown) | > 100

Study 3 — observed: enzyme activity; action: inhibitor; tested at: 0.5 µM; reference: control
Target: Serine/threonine-protein kinase MRCK alpha (CDC42BPA, Homo sapiens, UniProt Q5VT25)
Chain of UniProt Q5VT25 (whole entry, looked up): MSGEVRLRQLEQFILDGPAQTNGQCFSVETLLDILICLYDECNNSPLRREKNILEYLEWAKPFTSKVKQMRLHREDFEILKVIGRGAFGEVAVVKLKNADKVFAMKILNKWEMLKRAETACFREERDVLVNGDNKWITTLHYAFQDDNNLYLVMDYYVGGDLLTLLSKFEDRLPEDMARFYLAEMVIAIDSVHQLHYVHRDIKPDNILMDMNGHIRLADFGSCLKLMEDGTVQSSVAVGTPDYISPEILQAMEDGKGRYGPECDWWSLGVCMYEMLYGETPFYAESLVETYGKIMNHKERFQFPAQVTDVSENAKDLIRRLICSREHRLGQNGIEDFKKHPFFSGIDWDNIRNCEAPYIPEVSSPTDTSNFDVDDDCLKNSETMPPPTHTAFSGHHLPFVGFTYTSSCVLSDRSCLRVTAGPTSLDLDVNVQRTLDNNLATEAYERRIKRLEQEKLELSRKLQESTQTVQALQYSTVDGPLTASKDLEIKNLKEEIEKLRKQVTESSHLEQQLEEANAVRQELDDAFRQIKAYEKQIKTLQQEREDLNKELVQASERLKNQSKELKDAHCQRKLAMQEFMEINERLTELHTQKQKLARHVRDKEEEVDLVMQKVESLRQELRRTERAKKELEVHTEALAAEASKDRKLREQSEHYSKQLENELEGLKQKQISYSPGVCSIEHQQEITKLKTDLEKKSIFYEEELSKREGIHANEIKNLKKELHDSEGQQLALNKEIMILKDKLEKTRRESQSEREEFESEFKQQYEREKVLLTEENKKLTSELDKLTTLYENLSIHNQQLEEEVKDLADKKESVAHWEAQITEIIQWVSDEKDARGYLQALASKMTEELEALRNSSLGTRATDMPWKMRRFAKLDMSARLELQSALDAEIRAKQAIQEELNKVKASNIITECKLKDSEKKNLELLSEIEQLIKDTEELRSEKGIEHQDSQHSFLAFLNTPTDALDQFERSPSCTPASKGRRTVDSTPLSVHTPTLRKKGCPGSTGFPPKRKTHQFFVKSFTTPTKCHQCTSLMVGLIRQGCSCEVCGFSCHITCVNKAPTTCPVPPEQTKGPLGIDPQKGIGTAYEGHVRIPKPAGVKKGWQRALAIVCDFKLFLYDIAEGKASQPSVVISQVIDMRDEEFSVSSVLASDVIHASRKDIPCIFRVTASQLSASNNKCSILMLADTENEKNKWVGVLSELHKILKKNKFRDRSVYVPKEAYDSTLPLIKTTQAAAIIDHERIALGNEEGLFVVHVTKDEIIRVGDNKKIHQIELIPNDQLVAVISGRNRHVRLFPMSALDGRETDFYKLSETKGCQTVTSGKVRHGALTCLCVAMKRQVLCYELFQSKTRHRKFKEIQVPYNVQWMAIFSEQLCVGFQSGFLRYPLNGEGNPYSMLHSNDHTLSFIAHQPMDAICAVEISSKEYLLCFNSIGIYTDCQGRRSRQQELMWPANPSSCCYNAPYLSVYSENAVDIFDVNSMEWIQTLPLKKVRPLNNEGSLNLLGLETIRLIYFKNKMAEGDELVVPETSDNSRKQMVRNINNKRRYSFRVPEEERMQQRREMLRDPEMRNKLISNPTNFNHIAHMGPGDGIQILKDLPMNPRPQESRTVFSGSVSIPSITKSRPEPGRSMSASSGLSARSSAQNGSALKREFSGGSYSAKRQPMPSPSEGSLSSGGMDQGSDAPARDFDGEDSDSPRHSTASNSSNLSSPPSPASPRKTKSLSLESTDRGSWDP
Structure (SMILES) | remaining activity
O=C1Nc2ccccc2/C1=C\c1c(Cl)[nH]c2ccccc12 | 95.7%
Oc1cccc(-c2nc(N3CCOCC3)c3oc4ncccc4c3n2)c1 | 94.5%
COc1ccc(COc2ccc(Cc3cnc(N)nc3N)cc2OC)cc1 | 94.4%
CCCCc1c(-c2ccc(OC)cc2)[nH]c2nccnc12 | 99.7%
CN(C)S(=O)(=O)c1ccc2c(c1)/C(=C/c1cc3c([nH]1)CCCC3)C(=O)N2 | 92.3%
CCCNC(=O)Nc1ccc(Oc2ncnc3cc(OC)c(OC)cc23)cc1Cl | 77.8%
Cc1ccc(S(=O)(=O)/C=C/C#N)cc1 | 96.4%
O=c1cc(N2CCOCC2)oc2c(-c3ccccc3)cccc12 | 104%
COc1ccc2c(c1)c(C1=C(c3c[nH]c4ccccc34)C(=O)NC1=O)cn2CCCN(C)C | 89.2%
O=C1NC(=O)c2c1c1c3ccccc3[nH]c1c1[nH]c3cc(Br)ccc3c21 | 97.5%
c1ccc(-c2n[nH]c3c2oc2ccccc23)cc1 | 87.4%

Study 4 — observed: cell-free assay; technique: competition with immobilised ligand; tested at: 0.1 µM
Structure (SMILES): CNC(=O)c1ccc(Nc2ncc(C(F)(F)F)c(NCc3nccnc3N(C)S(C)(=O)=O)n2)cc1
target | remaining binding
LATS1 (Homo sapiens, UniProt O95835) | 96%
RET (Homo sapiens, UniProt P07949, V804L) | 30%
CHUK (Homo sapiens, UniProt O15111) | 98%
MYLK4 (Homo sapiens, UniProt Q86YV6) | 100%
MAP3K14 (Homo sapiens, UniProt Q99558) | 92%
FLT1 (Homo sapiens, UniProt P17948) | 63%
PDGFRB (Homo sapiens, UniProt P09619) | 83%
KIT (Homo sapiens, UniProt P10721, V559D) | 92%
MAP2K1 (Homo sapiens, UniProt Q02750) | 100%
Ribosomal protein S6 kinase alpha-4, N-terminal kinase domain (RPS6KA4, Homo sapiens, UniProt O75676) | 85%
CHEK2 (Homo sapiens, UniProt O96017) | 100%
KDR (Homo sapiens, UniProt P35968) | 73%
ACVR2A (Homo sapiens, UniProt P27037) | 90%
Ribosomal protein S6 kinase alpha-3, N-terminal kinase domain (RPS6KA3, Homo sapiens, UniProt P51812) | 82%
WNK3 (Homo sapiens, UniProt Q9BYP7) | 100%
EPHB3 (Homo sapiens, UniProt P54753) | 87%
NEK11 (Homo sapiens, UniProt Q8NG66) | 89%
EGFR (Homo sapiens, UniProt P00533, L858R/T790M) | 91%
Tyrosine-protein kinase ABL1, non-phosphorylated (ABL1, Homo sapiens, UniProt P00519, H396P) | 68%

Some of these lines once more (study 2):
Structure (SMILES) | remaining compound [%]
COc1ccc(-c2cc(C(=O)N3CCc4ccccc4C3)n[nH]2)cc1S(=O)(=O)N(C)C | 2.87
N#Cc1ccc(OC2CCC(Nc3ncnc(N)c3Cl)CC2)nc1 (stereo not shown) | 88.2
CC(C)=CCn1c(COc2ccc(Br)cc2Cl)noc1=O | > 99.9
CCc1nc2cc(-c3ccc(OC)nc3)cnc2[nH]1 | 48.1
COc1ncc(NC(=O)CCCNC(=O)OC(C)(C)C)cc1C#N | 16.7
O=C(Nc1nc2ncc(Br)nc2s1)c1ccc(Cl)cc1 | 52.4
CC(C)(C)c1cc(SCC(=O)O)cc(C(C)(C)C)c1O | > 99
